Published values pooled from the literature.
“And” joins repeats or separate records; there may be more than shown.
Target: MAP kinase-interacting serine/threonine-protein kinase 2 (MKNK2, Homo sapiens, UniProt Q9HBH9)

For `CNC(=O)C[C@H](Cc1ccc(C#N)cc1)NC(=O)c1cc(-c2ccc(CN[C@H](C)c3ccc(C)cc3)o2)ccc1Cl`, “activity vs control” read 103% (enzyme activity, inhibitor; 1 µM).
With `CN1CCN(Cc2ccc(NC(=O)c3cccc(C#Cc4cnc(N)c5ncccc45)c3)cc2C(F)(F)F)CC1` the remaining binding was 8.4% (cell-free assay, competition with immobilised ligand; 50 nM).
For `COc1ccc(NC(=O)Nc2ccc3c(c2)C(=O)N(C(C)CO)CC(C)C(CN(C)Cc2ccc4c(c2)OCO4)O3)cc1` (stereo not drawn), the remaining activity was 92% (kinase activity, KinaseProfiler; 0.03 µM, species human; relative to: control).
The remaining binding of `CC(=O)Nc1ccc(-c2ccnc(NCC3CCC3)n2)cc1` is reported as 8% (cell-free assay, competition with immobilised ligand; 10 µM).
`O=C(Cc1ccc(OCc2ccccc2)cc1)NC1(C(=O)O)CCN(C(=O)c2ccc(-c3cccc(Cl)c3)cc2)CC1` — result for “activity vs control”: 101% (enzyme activity, inhibitor; 10 µM).
For `COC(=O)[C@@]1(C)C=C(C(=O)Nc2cccc(C(=O)Nc3ccc(Nc4nccc(-c5cccnc5)n4)c(C)c3)c2)C(=O)CC1`, the remaining activity was 106% (enzyme activity, inhibitor, radiometric; 1 µM).
The inhibition of `C=CC(=O)N1Cc2nc(-c3cc(-c4cc(Cl)cnc4Cl)c(F)cc3F)n(-c3ccncn3)c2C1` is reported as 6.7% (cell-free assay, inhibitor; 1 µM).
`Cc1cnc2nc1Nc1cccc(c1)COC/C=C/COCc1cc(ccc1OCCN1CCOCC1)N2` gave a remaining binding of 76% (binding; 0.1 µM).
`Cc1cccc(-c2ccc3nc(NC(=O)C4CCCCC4)nn3c2)c1` gave a remaining activity of 67% (enzyme activity, Dundee kinase panel; 10 µM).
`CNS(=O)(=O)Nc1nccc(Cc2c(C)c3ccc(Oc4ncccc4F)cc3oc2=O)c1F` has a remaining binding of 91% (binding, competition with immobilised ligand; 10 µM).
For `C=CC(=O)N1CCc2ccc(-n3c(=O)ccc4cnc5ccc(-c6cnn(C)c6)cc5c43)cc21`, the remaining binding was 74% (KINOMEscan; 1 µM; relative to: DMSO control).
For `CNC(=O)C1CCN(c2cc(C)c(F)cc2NC(=O)c2ccc(-c3cc(O)ccc3C)c(C)c2)CC1`, the remaining binding was 91% (binding, competition with immobilised ligand; 1 µM).
The remaining activity of `COc1c(OCCCN2CCOCC2)ccc2c1N=C(NC(=O)c1cnc(N)nc1)N1CCN=C21` is reported as 106% (kinase activity, inhibitor; 1 µM; relative to: untreated control).
The inhibition of `NC(=O)[C@@H](O)C[C@H]1CCc2sc3ncnc(O[C@H]4CC[C@H](N5CCOCC5)CC4)c3c21` is reported as 4% (enzyme activity, inhibitor; 10 µM).
The remaining activity of `Cc1ccc(C)c(-c2ccc3nc(NC(=O)C4CCCCC4)nn3c2)c1` is reported as 50% (enzyme activity, Dundee kinase panel; 10 µM).
With `COc1cc(Nc2nc(C)cc(-c3cnn4nc(OC)ccc34)n2)cc(C(F)(F)F)c1` the remaining activity was 78% (inhibitor; 1 µM; relative to: control).
`CNC1C[S+]2CC[S+]3CC[S+](C1)[Ru-4]321([N]=C=S)[n]2c3ccc(OC)cc3c3c4c(c5cc(F)c[n+]1c5c32)C(=O)NC4=O` (stereo not drawn) gave a remaining binding of 89% (KinomeScan; 0.1 µM; relative to: untreated).
With `C=CC(=O)Nc1cccc(-c2cnc3[nH]cc(C(=O)NC(C)(C)C)c3n2)c1` the inhibition was 9% and 1% (kinase activity; 0.1 µM).
The remaining binding of `CC(C)=CC1OC(C)(C)C2C=C3C(=O)C(Cl)=CC(O)C3C3C(O)C4OC4C(=O)C132` (stereo not drawn) is reported as 82% (cell-free assay, competition with immobilised ligand; 10 µM).
`Cc1cccc(O[C@H]2CCC[C@@H](C(C)CNCc3ccncc3)C2)c1` (relative stereo) gave an inhibition of 0% (enzyme activity, inhibitor; 1 µM).
The remaining binding of `Nc1ncc2c(n1)-c1c([nH]c3ccc(C4=CCOCC4)cc13)CCC2` is reported as 86% (binding, competition with immobilised ligand; 1 µM).

A few entries again:
With `C=CC(=O)Nc1cccc(-c2cnc3[nH]cc(C(=O)NC(C)(C)C)c3n2)c1` the inhibition was 9% and 1% (kinase activity; 0.1 µM).
